Results collected from several papers.
Lines come from different studies, so protocols differ. Values joined by “and” are separate records of one study, mostly repeats; a detail may differ. Numbers after ± are the reported error.
UniProt P49327, sequence (whole entry, looked up): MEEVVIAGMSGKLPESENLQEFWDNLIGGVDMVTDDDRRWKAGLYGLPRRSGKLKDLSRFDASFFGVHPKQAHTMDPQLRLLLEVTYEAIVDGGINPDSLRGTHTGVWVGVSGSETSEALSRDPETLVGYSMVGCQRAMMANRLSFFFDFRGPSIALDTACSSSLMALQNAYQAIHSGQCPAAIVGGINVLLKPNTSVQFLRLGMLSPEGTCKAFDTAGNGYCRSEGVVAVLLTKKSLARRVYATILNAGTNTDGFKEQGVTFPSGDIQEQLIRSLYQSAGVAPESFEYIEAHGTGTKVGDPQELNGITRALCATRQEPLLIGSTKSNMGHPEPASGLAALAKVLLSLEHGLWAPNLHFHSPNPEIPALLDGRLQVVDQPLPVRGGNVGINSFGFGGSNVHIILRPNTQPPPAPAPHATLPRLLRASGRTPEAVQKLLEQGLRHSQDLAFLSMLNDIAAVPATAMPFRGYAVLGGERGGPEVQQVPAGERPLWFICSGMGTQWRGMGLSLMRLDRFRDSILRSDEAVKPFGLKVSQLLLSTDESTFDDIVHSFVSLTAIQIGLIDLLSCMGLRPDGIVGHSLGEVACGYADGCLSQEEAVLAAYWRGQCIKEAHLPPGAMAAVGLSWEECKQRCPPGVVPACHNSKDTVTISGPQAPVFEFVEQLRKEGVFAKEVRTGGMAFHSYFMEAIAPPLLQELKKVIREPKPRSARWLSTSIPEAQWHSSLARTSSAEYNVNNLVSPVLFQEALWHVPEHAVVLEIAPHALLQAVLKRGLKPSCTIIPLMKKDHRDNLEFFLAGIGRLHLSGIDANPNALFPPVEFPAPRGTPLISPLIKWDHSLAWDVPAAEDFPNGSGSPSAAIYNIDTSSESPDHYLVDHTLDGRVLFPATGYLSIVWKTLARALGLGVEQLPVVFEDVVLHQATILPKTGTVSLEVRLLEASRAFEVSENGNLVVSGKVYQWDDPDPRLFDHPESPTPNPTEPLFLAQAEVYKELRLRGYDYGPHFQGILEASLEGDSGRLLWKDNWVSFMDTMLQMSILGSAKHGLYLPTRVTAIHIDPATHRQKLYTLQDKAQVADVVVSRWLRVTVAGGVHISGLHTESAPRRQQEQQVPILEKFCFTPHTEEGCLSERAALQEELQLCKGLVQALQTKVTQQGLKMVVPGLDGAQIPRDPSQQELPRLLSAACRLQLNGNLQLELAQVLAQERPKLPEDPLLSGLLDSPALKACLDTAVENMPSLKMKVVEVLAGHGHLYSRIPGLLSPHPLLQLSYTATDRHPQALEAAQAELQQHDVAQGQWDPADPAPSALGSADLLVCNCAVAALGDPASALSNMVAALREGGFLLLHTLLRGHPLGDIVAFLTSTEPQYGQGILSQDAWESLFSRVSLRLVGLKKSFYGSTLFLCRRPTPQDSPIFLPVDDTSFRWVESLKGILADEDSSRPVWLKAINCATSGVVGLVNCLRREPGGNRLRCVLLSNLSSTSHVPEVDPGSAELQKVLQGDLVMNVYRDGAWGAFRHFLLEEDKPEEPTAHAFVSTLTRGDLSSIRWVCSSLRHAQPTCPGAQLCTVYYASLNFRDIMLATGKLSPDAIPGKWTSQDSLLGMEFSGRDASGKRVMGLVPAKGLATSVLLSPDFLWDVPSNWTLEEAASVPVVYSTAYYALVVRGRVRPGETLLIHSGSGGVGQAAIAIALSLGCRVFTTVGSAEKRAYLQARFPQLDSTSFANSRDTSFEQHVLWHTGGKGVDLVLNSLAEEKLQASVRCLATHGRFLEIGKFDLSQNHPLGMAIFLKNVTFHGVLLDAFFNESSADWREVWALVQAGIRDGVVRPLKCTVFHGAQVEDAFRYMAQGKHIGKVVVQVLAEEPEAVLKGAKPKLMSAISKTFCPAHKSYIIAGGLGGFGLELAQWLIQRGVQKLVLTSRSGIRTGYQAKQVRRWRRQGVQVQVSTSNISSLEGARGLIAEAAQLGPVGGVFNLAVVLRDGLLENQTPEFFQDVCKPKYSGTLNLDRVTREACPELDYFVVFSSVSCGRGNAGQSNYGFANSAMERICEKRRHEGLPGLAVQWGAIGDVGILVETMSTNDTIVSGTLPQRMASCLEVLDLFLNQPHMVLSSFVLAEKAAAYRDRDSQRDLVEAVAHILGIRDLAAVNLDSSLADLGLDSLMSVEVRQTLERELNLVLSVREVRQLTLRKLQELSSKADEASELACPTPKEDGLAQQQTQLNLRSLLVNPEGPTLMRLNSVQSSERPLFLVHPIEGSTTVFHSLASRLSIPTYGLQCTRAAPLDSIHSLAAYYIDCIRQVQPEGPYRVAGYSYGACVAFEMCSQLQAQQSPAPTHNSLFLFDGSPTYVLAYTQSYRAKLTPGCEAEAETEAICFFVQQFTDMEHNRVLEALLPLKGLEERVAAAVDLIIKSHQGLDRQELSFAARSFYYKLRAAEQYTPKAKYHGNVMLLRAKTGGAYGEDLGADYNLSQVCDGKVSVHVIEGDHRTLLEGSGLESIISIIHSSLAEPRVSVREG

CC(c1ccccc1)(c1ccc(O)cc1)c1ccc(O)cc1 — viable cells (HepG2 spheroids, dissociated; annexin V-FITC/PI flow cytometry; 0.10 µM, 96 h): 32 ± 18.2%
CC(C)C[C@@H](NC(=O)[C@H](N)CCCCN)C(=O)N[C@H](CC(C)C)C(=O)N[C@H](Cc1ccccc1)C(=O)N[C@H](Cc1ccccc1)C(=O)N[C@H](C)C(N)=O — viability (NGF-differentiated PC-12 neurons; 40 µM, 24 h; relative to: untreated): 95.6%
Cc1ccc(N)cc1N — micronuclei fold increase (HepaRG; maximum tested, 24 (unit not given); relative to: vehicle): 1 fold
CC(C)C[C@H](NC(=O)[C@H](C)NC(=O)[C@@H](NC(=O)[C@H](CCCNC(=N)N)NC(=O)[C@H](CC(C)C)NC(=O)[C@H](Cc1c[nH]c2ccccc12)NC(=O)[C@@H]1CCCN1C(=O)[C@@H](N)CCCCN)C(C)C)C(=O)N[C@@H](CS)C(=O)N1CCC[C@H]1C(=O)NCC(=O)O — viability (A549; WST-1; 512 µM, 24 h): 109% and 98.8% and 67%
COc1ccc(NC(=O)N2CCCCN3[C@H](CN(C)C)[C@H](c4ccc(C#Cc5ccccc5)cc4)[C@@H]3C2)cc1 — selectivity index (differentiated THP-1; 72 h; relative to: THP-1 CC50 over EC50): 25
Oc1ccc(C(c2ccc(O)cc2)(C(F)(F)F)C(F)(F)F)cc1 — mitotic cells (HepG2 spheroids; flow cytometry, refers to: phospho-histone H3; 40 µM, 24 h; relative to: solvent control): 5.26 fold
COc1ccc(Nc2nn3c(-c4ccccc4)ccnc3c2C(=O)Nc2ccccc2)cc1 — viability (WI-38; MTT; serum-free medium; 125.00 µg/mL, 48 h): 70.8%
CC(C)C[C@@H](NC(=O)[C@H](N)CCCCN)C(=O)N1CCC[C@@H]1C(=O)N[C@H](Cc1ccccc1)C(=O)N[C@H](Cc1ccccc1)C(=O)N[C@H](C)C(=O)N[C@H](CCC(=O)O)C(N)=O — viability (NGF-differentiated PC-12 neurons; 20 µM, 24 h; relative to: untreated): 96%
C[C@H]1CN(c2n[nH]c3nc(N[C@H]4CC[C@H](NS(=O)(=O)CCC(F)(F)F)CC4)ncc23)CCO1 — relative abundance (Fatty acid synthase (FASN, Homo sapiens, UniProt P49327); inhibitor, Kinobeads competition profiling; 0.16 µM; relative to: vehicle): 1.01
O=S(=O)(c1ccc(-c2ccc3nccc(Nc4cncs4)c3c2)cc1)N1CCOCC1 — TC50 (NIH 3T3; cytotoxicity, PrestoBlue; 96 h, 2% FBS): > 20 µM
Cc1nc2ccccc2n1Cc1nnc2sc(-c3cccnc3)nn12 — CC50 (HEp-2; cytotoxicity): 60.7 µM
N#Cc1cnc(Nc2ccnc3ccc(-c4ccc(S(=O)(=O)N5CCOCC5)cc4)cc23)cn1 — TC50 (NIH 3T3; cytotoxicity, PrestoBlue; 96 h, 2% FBS): > 20 µM
CCCCN1CCC(N(Cc2ccccc2)C(=O)Nc2ccc(Cl)c(Cl)c2)CC1 — LD50 (HCC95 cells; CellTiter-Glo): 31.8 µM
Cc1cccc(N2CCN(C(=O)C3CCN(Cc4nc(-c5ccc(Cl)cc5)oc4C)CC3)CC2)c1C — maximum response (Vero-E6; CellTiter-Glo ATP; 72 h, first round 5-point; relative to: DMSO 0%, hyamine -100%, more negative, more toxic): -2.26%
Cc1cnnc(Nc2ccnc3ccc(-c4ccc(S(=O)(=O)N5CCOCC5)cc4)cc23)c1 — TC50 (NIH 3T3; cytotoxicity, PrestoBlue; 96 h, 2% FBS): > 20 µM
N.N.[Cl][Pt][Cl] — micronucleus fold increase (HepaRG; concentration not given, highest tested concentration; relative to: vehicle): 11.7 fold
CCCCCCCCCCCC[N+](C)(C)Cc1ccccc1.[Br-] — cell viability (PC-12; CCK-8; 10 µM, light-degraded residues of compound, together with: sunlight 100 mW/cm^2 for 4 h): ~40%
CO[C@H]1C[C@@H]2CC[C@@H](C)[C@@](O)(O2)C(=O)C(=O)N2CCCC[C@H]2C(=O)O[C@H]([C@H](C)C[C@@H]2CC[C@@H](OC(=O)NCCOCCOCCOCCOCCOCCOCCOCCOCCC(=O)N3CCc4cc(Cn5nc(-c6ccc7oc(N)nc7c6)c6c(N)ncnc65)ccc4C3)[C@H](OC)C2)C[C@@H](O)[C@H](C)/C=C(\C)[C@@H](O)[C@@H](OC)C(=O)[C@H](C)C[C@H](C)/C=C/C=C/C=C/1C — TRAE incidence (phase 1 dose escalation, refers to: mucositis; advanced solid tumour patients; intravenous, 10 mg weekly, any grade): 62.5%
Cc1cc(C(C)(C)c2ccc(O)c(C)c2)ccc1O — late apoptotic cells (HepG2 spheroids; annexin V-FITC/PI flow cytometry; 1 µM, 96 h): 32.9 ± 6.22%
CC[C@H](C)[C@H](NC(=O)[C@H](C)NC(=O)[C@H](CO)NC(=O)[C@@H](NC(=O)[C@H](CCCCN)NC(=O)[C@H](CCSC)NC(=O)[C@H](CC(C)C)NC(=O)[C@H](CO)NC(=O)[C@H](CC(C)C)NC(=O)[C@@H](N)CCCNC(=N)N)[C@@H](C)O)C(=O)N[C@@H](CCCCN)C(=O)N[C@@H](CCCCN)C(=O)N[C@H](C(=O)N[C@@H](CCCNC(=N)N)C(=O)N[C@@H](CC(N)=O)C(=O)N1CCC[C@H]1C(=O)N[C@@H](CCCCN)C(=O)NCC(=O)N1CCC[C@H]1C(=O)N[C@@H](CC(C)C)C(=O)N[C@H](C(=O)N[C@@H](CC(C)C)C(=O)N[C@@H](CCCNC(=N)N)C(=O)N[C@@H](CC(C)C)C(=O)NCC(=O)N[C@@H](C)C(=O)N[C@@H](C)C(=O)N1CCC[C@H]1C(=O)N[C@H](C(=O)N[C@H](C(=O)N[C@@H](CCC(N)=O)C(=O)N1CCC[C@H]1C(=O)N[C@H](C(=O)N[C@@H](CCCNC(=N)N)C(=O)N[C@@H](CCCNC(=N)N)C(=O)N[C@H](C(=O)N[C@@H](Cc1ccccc1)C(=O)N1CCC[C@H]1C(=O)N[C@@H](CCCNC(=N)N)C(=O)O)C(C)C)[C@@H](C)O)[C@@H](C)O)C(C)C)[C@@H](C)CC)[C@@H](C)CC — CC50 (THP-1, PMA-differentiated; cell viability, MTT): 236 µM
CC(C)C[C@@H](N)C(=O)N1CCC[C@@H]1C(=O)N[C@H](Cc1ccccc1)C(=O)N[C@H](Cc1ccccc1)C(=O)N[C@H](C)C(N)=O — viability (NGF-differentiated PC-12 neurons; 80 µM, 24 h; relative to: untreated): 99.9%
COc1cc(-c2nn3c(Cn4nnc5ccccc54)nnc3s2)cc(OC)c1OC — CC50 (HEp-2; cytotoxicity): > 100 µM
CC(C)C[C@@H](N)C(=O)N1CCC[C@@H]1C(=O)N[C@H](Cc1ccccc1)C(=O)N[C@H](Cc1ccccc1)C(=O)N[C@H](C)C(=O)N[C@H](CCC(=O)O)C(N)=O — viability (NGF-differentiated PC-12 neurons; 40 µM, 24 h; relative to: untreated): 97.3%
Cc1ccc(C)c(Nc2cc(C(=O)NCCCN(C)C3CCCCC3)c3ccccc3n2)c1 — maximum response (Vero-E6; CellTiter-Glo ATP; 72 h, second round 5-point; relative to: DMSO 0%, hyamine -100%, more negative, more toxic): -27.8%
CC(C)C[C@@H](NC(=O)[C@H](N)CCCCN)C(=O)N[C@H](CC(C)C)C(=O)N[C@H](Cc1ccccc1)C(=O)N[C@H](Cc1ccccc1)C(=O)N[C@H](C)C(=O)N[C@H](CCC(=O)O)C(N)=O — viability (NGF-differentiated PC-12 neurons; 10 µM, 24 h; relative to: untreated): 100%
C/C=C(/C)C(=O)OC[C@H]1[C@@H](Cc2ccc(C(F)(F)F)cc2)CO[C@@H]1c1ccc(F)cc1 — LDH release (rat aortic VSMCs; 30 µM, 24.5 h): 6 ± 1.4%
CCc1nnc(Nc2ccnc3ccc(-c4ccc(S(=O)(=O)N5CCOCC5)cc4)cc23)s1 — TC50 (NIH 3T3; cytotoxicity, PrestoBlue; 96 h, 2% FBS): > 20 µM
COc1cccc(-c2ccccc2NC(=O)C2CCN(Cc3ccccc3F)CC2)c1 — maximum response (Vero-E6; CellTiter-Glo ATP; 72 h, first round 5-point; relative to: DMSO 0%, hyamine -100%, more negative, more toxic): -1.68%
O=S(=O)(c1ccc(O)cc1)c1ccc(O)cc1 — necrotic cells (HepG2 spheroids; annexin V-FITC/PI flow cytometry; 0.1 µM, 24 h): 7.29 ± 0.4%
[Cl][Cd][Cl] — micronucleus fold increase (HepaRG; concentration not given, highest tested concentration; relative to: vehicle): 0.8 fold
CCc1ccc(Sc2cc(C(=O)NCCCN3CCC(C)CC3)c3ccccc3n2)cc1 — maximum response (Vero-E6; CellTiter-Glo ATP; 72 h, first round 5-point; relative to: DMSO 0%, hyamine -100%, more negative, more toxic): -21.9%
CC(C)C[C@@H](NC(=O)[C@H](N)CCCCN)C(=O)N[C@H](CC(C)C)C(=O)N[C@H](Cc1ccccc1)C(=O)N[C@H](Cc1ccccc1)C(N)=O — viability (NGF-differentiated PC-12 neurons; 160 µM, 24 h; relative to: untreated): 99%
CCN(N=O)C(N)=O — lowest effective concentration (HepaRG; micronucleus formation; 24 (unit not given)): 1020 µM
O=c1ccc2ccccc2o1 — probability of response (HepG2; refers to: cell count; concentration not given, 1 h, necrosis and apoptosis panel): 0.03%
CN1CCCN(S(=O)(=O)c2ccc(-c3ccc4ncc(C#N)c(Nc5ccc(OCc6cccc(F)c6)c(Cl)c5)c4c3)cc2)CC1 — TC50 (NIH 3T3; PrestoBlue; 2% FBS medium; 96 h): 24 µM
CN(C)c1ccc(C(Nc2nc3c(-c4ccc([N+](=O)[O-])cc4)nn(-c4ccccc4)c3s2)P(=O)(Oc2ccccc2)Oc2ccccc2)cc1 (stereo not shown) — viability (BNL mouse liver cells; SRB; 0.1 µM, 10% fetal bovine serum): 99.5%
Cc1ccc2[nH]c3c(c2c1)CCCC3NCCCCc1ccccc1 (stereo not shown) — non-viable cells (A549; 50 µM, 23 h): 18.1 ± 15.2%
COc1cc2c(Oc3ccc4[nH]c(C)cc4c3F)ccnc2cc1OCC1(N)CC1 — Dizzy incidence (paediatric refractory sarcoma patients; 8 mg): 0%
C1CCNCC1 — host cell number (HCT-8 infected with Cryptosporidium parvum; Hoechst nuclei count; 1 mM, 24 h; relative to: PBS): 1.04 ± 0.036
Cc1cc(-c2nn3c(Cn4c(C)nc5ccccc54)nnc3s2)no1 — CC50 (HEp-2; cytotoxicity): 59 µM
CN[C@@H]1[C@@H](O)[C@@H](O[C@@H]2[C@@H](O)[C@H](O[C@H]3O[C@H]([C@@H](C)O)[C@@H](O)[C@H](O)[C@H]3N)[C@@H](N)C[C@H]2N)OC[C@]1(C)O — 25% lethal concentration (NIH 3T3; 72 h, 10% fetal bovine serum): 212 ± 8.6 µM
COc1ccc(CC(=O)NC2CCN(Cc3ccc(-c4ccccc4OC)cc3)C2)cc1 (stereo not shown) — cytotoxicity efficacy (Vero-E6; CellTiter-Glo ATP; concentration not given, 72 h, retest 8-point duplicates; relative to: DMSO 0%, hyamine -100%, more negative, more toxic): -11.4%
CC(C)C[C@@H](NC(=O)[C@H](N)CCCCN)C(=O)N[C@@H](C(=O)N[C@H](Cc1ccccc1)C(=O)N[C@H](Cc1ccccc1)C(N)=O)C(C)C — viability (NGF-differentiated PC-12 neurons; 160 µM, 24 h; relative to: untreated): 100%
CCCN(CCC)CCCNC(=O)C1CCCN(Cc2nc(-c3ccc(Cl)cc3)oc2C)C1 (stereo not shown) — maximum response (Vero-E6; CellTiter-Glo ATP; 72 h, second round 5-point; relative to: DMSO 0%, hyamine -100%, more negative, more toxic): -15.8%
CC(C)C[C@@H](N)C(=O)N[C@H](Cc1ccccc1)C(=O)N[C@H](Cc1ccccc1)C(=O)N[C@H](C)C(N)=O — viability (NGF-differentiated PC-12 neurons; 40 µM, 24 h; relative to: untreated): 90.2%
O=C(NCCCN1CCCCCC1)c1ccc2c(c1)sc1nc(-c3ccccc3)cn12 — maximum response (Vero-E6; CellTiter-Glo ATP; 72 h, second round 5-point; relative to: DMSO 0%, hyamine -100%, more negative, more toxic): -26.1%
CN1CCCN(S(=O)(=O)c2ccc(-c3ccc4c(Nc5ccc(OCc6cccc(F)c6)c(Cl)c5)nncc4c3)cc2)CC1 — TC50 (NIH 3T3; PrestoBlue; 2% FBS medium; 96 h): 44 µM
CCN1CCN(c2cc(C)c3cc(NC(=O)c4cccc(Cl)c4)ccc3n2)CC1 — maximum response (Vero-E6; CellTiter-Glo ATP; 72 h, first round 5-point; relative to: DMSO 0%, hyamine -100%, more negative, more toxic): -0.887%
CC(=O)c1c(C)c2cnc(Nc3ccc(C4CCN(CCS(C)(=O)=O)CC4)cn3)nc2n(C2CCCC2)c1=O — MRT (human, plasma; oral, 25 mg once daily, day 1, single dose): 6.16 h

Repeated from above:
CCN(N=O)C(N)=O — lowest effective concentration (HepaRG; micronucleus formation; 24 (unit not given)): 1020 µM
O=c1ccc2ccccc2o1 — probability of response (HepG2; refers to: cell count; concentration not given, 1 h, necrosis and apoptosis panel): 0.03%
CN1CCCN(S(=O)(=O)c2ccc(-c3ccc4ncc(C#N)c(Nc5ccc(OCc6cccc(F)c6)c(Cl)c5)c4c3)cc2)CC1 — TC50 (NIH 3T3; PrestoBlue; 2% FBS medium; 96 h): 24 µM
CN(C)c1ccc(C(Nc2nc3c(-c4ccc([N+](=O)[O-])cc4)nn(-c4ccccc4)c3s2)P(=O)(Oc2ccccc2)Oc2ccccc2)cc1 (stereo not shown) — viability (BNL mouse liver cells; SRB; 0.1 µM, 10% fetal bovine serum): 99.5%
Cc1ccc2[nH]c3c(c2c1)CCCC3NCCCCc1ccccc1 (stereo not shown) — non-viable cells (A549; 50 µM, 23 h): 18.1 ± 15.2%
